Results gathered from unrelated publications.
Parts stem from different laboratories: compare values within a part only.
UniProt P57058, sequence (whole entry, looked up): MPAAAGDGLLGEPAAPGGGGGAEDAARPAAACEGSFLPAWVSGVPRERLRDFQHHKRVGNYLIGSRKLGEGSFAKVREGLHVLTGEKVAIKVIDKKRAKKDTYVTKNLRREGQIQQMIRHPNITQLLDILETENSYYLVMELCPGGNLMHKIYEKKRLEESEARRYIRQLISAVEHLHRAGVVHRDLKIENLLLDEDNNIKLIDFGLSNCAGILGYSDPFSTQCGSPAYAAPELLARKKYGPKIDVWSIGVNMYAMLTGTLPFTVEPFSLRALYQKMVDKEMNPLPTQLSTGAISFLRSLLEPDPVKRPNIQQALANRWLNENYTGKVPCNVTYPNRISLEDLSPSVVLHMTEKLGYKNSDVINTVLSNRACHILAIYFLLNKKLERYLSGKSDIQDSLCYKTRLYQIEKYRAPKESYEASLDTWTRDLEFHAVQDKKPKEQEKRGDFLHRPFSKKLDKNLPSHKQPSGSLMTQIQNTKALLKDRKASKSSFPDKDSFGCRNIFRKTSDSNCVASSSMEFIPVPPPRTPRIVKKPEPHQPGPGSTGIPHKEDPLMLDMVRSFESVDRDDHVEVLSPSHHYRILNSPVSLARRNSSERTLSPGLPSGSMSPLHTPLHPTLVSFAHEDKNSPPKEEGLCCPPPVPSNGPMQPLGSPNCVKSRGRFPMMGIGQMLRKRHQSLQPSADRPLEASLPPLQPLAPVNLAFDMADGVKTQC
UniProt Q96PN8, sequence (whole entry, looked up): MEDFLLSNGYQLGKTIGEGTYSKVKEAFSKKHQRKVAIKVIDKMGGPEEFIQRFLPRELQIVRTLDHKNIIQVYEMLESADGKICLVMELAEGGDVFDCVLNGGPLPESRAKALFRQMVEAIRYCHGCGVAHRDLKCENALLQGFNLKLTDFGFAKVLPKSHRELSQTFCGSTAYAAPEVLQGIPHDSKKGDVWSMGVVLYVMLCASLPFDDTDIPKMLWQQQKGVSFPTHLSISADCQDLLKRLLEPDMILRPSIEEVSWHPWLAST
UniProt O00506, sequence (whole entry, looked up): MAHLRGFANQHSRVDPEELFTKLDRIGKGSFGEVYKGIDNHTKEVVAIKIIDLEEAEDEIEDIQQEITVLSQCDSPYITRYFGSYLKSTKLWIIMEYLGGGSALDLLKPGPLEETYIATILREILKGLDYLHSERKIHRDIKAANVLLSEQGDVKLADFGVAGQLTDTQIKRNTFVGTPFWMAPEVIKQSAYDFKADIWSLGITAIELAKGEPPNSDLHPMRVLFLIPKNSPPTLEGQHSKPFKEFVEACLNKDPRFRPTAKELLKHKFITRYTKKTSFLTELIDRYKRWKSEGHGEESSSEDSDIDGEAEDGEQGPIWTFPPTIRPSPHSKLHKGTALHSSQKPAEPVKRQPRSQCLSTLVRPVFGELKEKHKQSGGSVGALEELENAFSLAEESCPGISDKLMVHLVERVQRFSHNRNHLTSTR
UniProt O75914, sequence (whole entry, looked up): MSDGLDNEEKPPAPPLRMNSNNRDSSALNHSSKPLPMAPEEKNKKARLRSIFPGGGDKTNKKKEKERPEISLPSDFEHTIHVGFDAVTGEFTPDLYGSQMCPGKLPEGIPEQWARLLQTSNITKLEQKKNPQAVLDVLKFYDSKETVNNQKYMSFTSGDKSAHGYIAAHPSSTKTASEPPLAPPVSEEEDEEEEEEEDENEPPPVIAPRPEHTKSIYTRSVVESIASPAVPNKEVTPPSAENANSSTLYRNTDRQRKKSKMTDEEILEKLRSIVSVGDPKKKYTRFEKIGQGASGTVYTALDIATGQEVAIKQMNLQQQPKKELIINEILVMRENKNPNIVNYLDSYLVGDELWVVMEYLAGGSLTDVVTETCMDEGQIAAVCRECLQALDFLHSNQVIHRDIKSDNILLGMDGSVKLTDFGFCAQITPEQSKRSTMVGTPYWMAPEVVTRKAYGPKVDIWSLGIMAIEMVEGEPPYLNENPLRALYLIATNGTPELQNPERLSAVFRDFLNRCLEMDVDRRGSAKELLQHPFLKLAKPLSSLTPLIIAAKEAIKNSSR
UniProt P06239, sequence (whole entry, looked up): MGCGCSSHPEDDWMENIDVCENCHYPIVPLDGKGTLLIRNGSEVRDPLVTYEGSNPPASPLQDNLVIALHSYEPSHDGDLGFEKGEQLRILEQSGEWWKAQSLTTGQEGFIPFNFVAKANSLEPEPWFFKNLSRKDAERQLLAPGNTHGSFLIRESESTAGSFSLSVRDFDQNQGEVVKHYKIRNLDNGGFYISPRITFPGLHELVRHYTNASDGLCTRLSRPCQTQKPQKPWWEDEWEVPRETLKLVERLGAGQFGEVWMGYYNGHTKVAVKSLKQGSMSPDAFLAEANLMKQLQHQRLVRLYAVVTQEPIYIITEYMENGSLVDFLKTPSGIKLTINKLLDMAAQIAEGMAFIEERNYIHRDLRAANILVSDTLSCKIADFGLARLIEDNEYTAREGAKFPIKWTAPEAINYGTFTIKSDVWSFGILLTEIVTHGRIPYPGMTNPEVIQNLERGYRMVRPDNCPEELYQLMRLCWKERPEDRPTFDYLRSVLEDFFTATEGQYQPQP
UniProt O15530, sequence (whole entry, looked up): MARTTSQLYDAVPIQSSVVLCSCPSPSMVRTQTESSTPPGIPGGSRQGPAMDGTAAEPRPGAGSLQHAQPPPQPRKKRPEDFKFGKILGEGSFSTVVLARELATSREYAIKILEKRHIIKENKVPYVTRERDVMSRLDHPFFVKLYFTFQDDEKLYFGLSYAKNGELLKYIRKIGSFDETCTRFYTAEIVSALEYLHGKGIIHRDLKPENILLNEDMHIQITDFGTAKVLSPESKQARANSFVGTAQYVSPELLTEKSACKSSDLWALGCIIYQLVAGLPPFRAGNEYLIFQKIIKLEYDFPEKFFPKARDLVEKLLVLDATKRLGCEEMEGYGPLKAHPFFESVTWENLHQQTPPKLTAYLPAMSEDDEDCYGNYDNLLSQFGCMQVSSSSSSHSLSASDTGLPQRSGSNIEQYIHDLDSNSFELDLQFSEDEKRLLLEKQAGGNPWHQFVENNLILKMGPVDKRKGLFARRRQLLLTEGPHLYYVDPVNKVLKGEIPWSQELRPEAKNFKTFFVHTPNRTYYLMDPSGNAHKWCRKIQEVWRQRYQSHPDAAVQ
UniProt P04629, sequence (whole entry, looked up): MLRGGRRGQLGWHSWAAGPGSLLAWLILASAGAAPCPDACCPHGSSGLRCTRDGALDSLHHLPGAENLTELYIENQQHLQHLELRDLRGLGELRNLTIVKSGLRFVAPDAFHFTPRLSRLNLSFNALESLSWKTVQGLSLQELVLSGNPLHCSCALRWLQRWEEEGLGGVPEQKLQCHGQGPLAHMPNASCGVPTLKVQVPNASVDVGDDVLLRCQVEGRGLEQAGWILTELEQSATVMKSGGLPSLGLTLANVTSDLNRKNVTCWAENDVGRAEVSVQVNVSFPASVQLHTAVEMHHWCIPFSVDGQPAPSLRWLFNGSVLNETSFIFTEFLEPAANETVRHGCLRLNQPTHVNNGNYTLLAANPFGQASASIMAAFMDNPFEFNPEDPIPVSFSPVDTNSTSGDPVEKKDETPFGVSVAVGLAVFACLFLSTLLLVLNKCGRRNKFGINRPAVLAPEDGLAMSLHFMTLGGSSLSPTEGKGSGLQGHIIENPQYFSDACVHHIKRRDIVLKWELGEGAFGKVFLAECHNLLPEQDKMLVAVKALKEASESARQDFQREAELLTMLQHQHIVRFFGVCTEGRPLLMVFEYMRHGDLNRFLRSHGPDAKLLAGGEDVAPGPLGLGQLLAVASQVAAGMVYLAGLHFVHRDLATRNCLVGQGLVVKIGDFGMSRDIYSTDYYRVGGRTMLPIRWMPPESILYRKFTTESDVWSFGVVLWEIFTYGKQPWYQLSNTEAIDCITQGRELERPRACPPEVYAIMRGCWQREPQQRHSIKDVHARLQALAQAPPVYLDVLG

Set 1
Organism: Sarcocystis neurona
Effect on: parasite growth
Tested at: 10 µM
Time: 96 h
Setting: secondary screen
Endpoint: inhibition
O=c1cnn([C@@H]2O[C@H](CO)[C@@H](O)[C@H]2O)c(=O)[nH]1: -16.8%
C[C@]12C=CC(=O)C=C1CC[C@@H]1[C@@H]2C(=O)C[C@@]2(C)[C@H]1CC[C@]2(O)C(=O)CO: -17.6%
O=[N+]([O-])c1cccc2cn[nH]c12: -12%
CCN(CC)CCOC(=O)c1ccc(N)cc1: -5.1%
CCc1ccc(CCOc2ccc(CC3SC(=O)NC3=O)cc2)nc1 (stereo not shown): 9.8%
C#C[C@]1(O)CC[C@H]2[C@@H]3[C@H](C)CC4=C(CCC(=O)C4)[C@H]3CC[C@@]21C: -21.7%
CCOc1cc(CC(=O)N[C@@H](CC(C)C)c2ccccc2N2CCCCC2)ccc1C(=O)O: -43.5%
CC(=O)OCC(CCn1cnc2cnc(N)nc21)COC(C)=O: -27.2%
O=C1c2c(O)cc(O)cc2OC(c2ccc(O)c(O)c2)C1O (stereo not shown): -8.1%

Set 2
Target: Mitogen-activated protein kinase kinase kinase kinase 5 (MAP4K5, Homo sapiens, UniProt Q9Y4K4)
UniProt Q9Y4K4, sequence (whole entry, looked up): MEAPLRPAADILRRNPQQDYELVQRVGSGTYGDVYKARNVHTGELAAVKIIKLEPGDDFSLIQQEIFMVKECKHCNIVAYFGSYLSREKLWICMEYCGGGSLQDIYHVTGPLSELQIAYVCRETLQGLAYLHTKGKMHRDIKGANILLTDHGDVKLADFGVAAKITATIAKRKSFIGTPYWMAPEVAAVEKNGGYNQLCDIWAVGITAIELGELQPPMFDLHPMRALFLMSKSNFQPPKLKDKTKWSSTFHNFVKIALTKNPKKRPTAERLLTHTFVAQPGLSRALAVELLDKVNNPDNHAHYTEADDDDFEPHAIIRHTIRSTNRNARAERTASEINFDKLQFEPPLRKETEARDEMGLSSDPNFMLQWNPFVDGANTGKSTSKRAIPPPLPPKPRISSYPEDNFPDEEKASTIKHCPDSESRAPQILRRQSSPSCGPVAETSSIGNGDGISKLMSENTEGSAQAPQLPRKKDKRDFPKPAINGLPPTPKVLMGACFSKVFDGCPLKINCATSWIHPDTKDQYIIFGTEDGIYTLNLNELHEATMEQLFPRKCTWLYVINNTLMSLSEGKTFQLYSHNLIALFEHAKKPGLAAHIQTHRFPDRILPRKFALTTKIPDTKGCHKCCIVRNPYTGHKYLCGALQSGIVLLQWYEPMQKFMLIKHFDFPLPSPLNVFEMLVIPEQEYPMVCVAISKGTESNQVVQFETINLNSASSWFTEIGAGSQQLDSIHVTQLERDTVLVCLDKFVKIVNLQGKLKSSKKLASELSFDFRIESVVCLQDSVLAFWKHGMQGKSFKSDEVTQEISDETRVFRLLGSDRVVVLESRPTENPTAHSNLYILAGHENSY
Effect on: enzyme activity
Action: inhibitor
Tested at: 0.5 µM
Relative to: control
Endpoint: remaining activity
O=S(=O)(c1cccc2cnccc12)N1CCCNCC1: 36.3%
Cc1cccc(-c2[nH]c(C(C)(C)C)nc2-c2ccc3c(c2)OCO3)n1: 99.2%
O=c1c2ccccc2[nH]c(=S)n1CCN1CCC(=C(c2ccc(F)cc2)c2ccc(F)cc2)CC1: 98.8%
Cc1nc(-c2ccccc2)c(-c2ccncc2)o1: 96.2%
COc1cc2nccc(Oc3ccc(NC(=S)NC(=O)c4ccccc4C)cc3)c2cc1OC: 11.1%
O=C(Nc1cccc(Nc2cc(Nc3cccc(C(F)(F)F)c3)ncn2)c1)C1CC1: 96.1%
O=C(CCCc1ccc(-c2ccccc2F)cc1)Nc1ccc(O)cc1: 94.1%
Nc1ccc2ncnc(NCCc3ccc(Oc4ccccc4)cc3)c2c1: 94.8%
CO[C@H]1C[C@@H]2CC[C@@H](C)[C@@](O)(O2)C(=O)C(=O)N2CCCC[C@H]2C(=O)O[C@H]([C@H](C)C[C@@H]2CC[C@@H](O)[C@H](OC)C2)CC(=O)[C@H](C)/C=C(\C)[C@@H](O)[C@@H](OC)C(=O)[C@H](C)C[C@H](C)/C=C/C=C/C=C/1C: 110%
CNC(=O)c1cc(Oc2ccc(NC(=O)Nc3ccc(Cl)c(C(F)(F)F)c3)cc2)ccn1: 57%
N#CC(C#N)=C(N)/C(C#N)=C/c1ccc(O)cc1: 99.6%
Nc1ncnc2n[nH]c(Nc3ccc(F)cc3)c12: 52%
Nc1[nH]nc2nc3ccccc3nc12: 96.8%
COc1ccc(CNC(=O)Nc2ncc([N+](=O)[O-])s2)cc1: 93.9%
CC(C)[C@H](CO)Nc1nc(Nc2cc(N)cc(Cl)c2)c2ncn(C(C)C)c2n1: 82.5%
COc1ccc(C(=O)Nc2sc3c(c2C(N)=O)CCCC3)cc1OC: 94.3%

Set 3
SMILES: Cn1nc(C(F)(F)F)cc1-c1cnc(N2CCc3cc(S(=O)(=O)Nc4c(F)cc(Cl)cc4F)cc(N4CCCC4=O)c32)nc1
Effect on: cell-free assay
Technique: competition with immobilised ligand
Tested at: 1 µM
Endpoint: remaining binding
PDPK1 (Homo sapiens, UniProt O15530): 100%
NTRK1 (Homo sapiens, UniProt P04629): 69%
STK25 (Homo sapiens, UniProt O00506): 100%
PIK3CA (Homo sapiens, UniProt P42336, C420R): 76%
TSSK3 (Homo sapiens, UniProt Q96PN8): 94%
PHKG1 (Homo sapiens, UniProt Q16816): 98%
PAK3 (Homo sapiens, UniProt O75914): 77%
HUNK (Homo sapiens, UniProt P57058): 68%
LCK (Homo sapiens, UniProt P06239): 100%

Set 4
Host: mouse
Sample: microsomes or S9
Tested at: 2 µM
Time: 0.5 h
Endpoint: remaining compound
CCc1cnc(N2CCC(N(C)c3ncnc4c(-c5ccc6c(c5)CN(C)C6=O)csc34)CC2)nc1: 58.7%
CC(C)N(/C(=N/c1c(F)cccc1F)Nc1ccc2c(c1)C=CC(C)(C)O2)C(C)C: 1.64%
Cc1nn(C)cc1-c1cc(-c2cn(C)nc2C)n(CC(=O)N(C)Cc2ccn(C)n2)n1: 98.7%
CCOc1cc2c(cc1CNc1ccnc3c1cnn3C)OC(C)C2 (stereo not shown): 0.0415%
CN(C(=O)c1c[nH]nn1)C1c2ccccc2-c2ccccc21: 90.6%
CC(=O)c1c(NC2CCCc3ccccc32)[nH]c2c(-c3ccccc3)cccc2c1=O (stereo not shown): > 99%

Repeated from above (set 2):
CNC(=O)c1cc(Oc2ccc(NC(=O)Nc3ccc(Cl)c(C(F)(F)F)c3)cc2)ccn1: 57%
Cc1nc(-c2ccccc2)c(-c2ccncc2)o1: 96.2%
Nc1ncnc2n[nH]c(Nc3ccc(F)cc3)c12: 52%
COc1cc2nccc(Oc3ccc(NC(=S)NC(=O)c4ccccc4C)cc3)c2cc1OC: 11.1%
